Results from different studies.
Parts stem from different laboratories: compare values within a part only.

Study 1
Cell line: HEK-293T
Effect on: pseudovirus infection
Method: FDA-approved drug library screen
Organism: VSV pseudotyped with SARS-CoV-2 spike
Concentration: 10 µM
Time: 16 h
Reference: vehicle-treated
SMILES	GFP-positive cells [%]
CS(=O)(=O)CCNCc1ccc(-c2ccc3ncnc(Nc4ccc(OCc5cccc(F)c5)c(Cl)c4)c3c2)o1	56.5
CC1(C)NC(=O)N(c2ccc([N+](=O)[O-])c(C(F)(F)F)c2)C1=O	121
NC(=O)CC[C@H](N)C(=O)O	79.2
CO/N=C(\C(=O)N[C@@H]1C(=O)N2C(C(=O)O)=C(COC(C)=O)CS[C@H]12)c1csc(N)n1	115

Study 2
Target: Protein C-ets-1 (ETS1, Homo sapiens, UniProt P14921, residues 1-441, K379A, full length assumed)
Sequence of UniProt P14921 (whole entry, unmodified, looked up): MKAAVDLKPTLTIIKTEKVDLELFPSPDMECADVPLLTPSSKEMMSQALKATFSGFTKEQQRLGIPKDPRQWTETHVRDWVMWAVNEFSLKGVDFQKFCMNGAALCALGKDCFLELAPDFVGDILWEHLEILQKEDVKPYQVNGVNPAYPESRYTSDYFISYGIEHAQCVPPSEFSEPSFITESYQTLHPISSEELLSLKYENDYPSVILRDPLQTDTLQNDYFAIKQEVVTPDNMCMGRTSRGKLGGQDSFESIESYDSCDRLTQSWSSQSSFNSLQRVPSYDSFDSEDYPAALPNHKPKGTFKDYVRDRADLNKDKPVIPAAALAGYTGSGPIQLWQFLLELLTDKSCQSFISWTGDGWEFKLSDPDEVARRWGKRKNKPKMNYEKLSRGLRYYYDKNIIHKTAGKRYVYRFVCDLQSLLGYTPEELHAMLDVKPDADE
Method: protein-binding microarray
Molecule type: double-stranded DNA, one strand shown
Medium: in vitro
Concentration: not given
Setting: k-mer, scored over probes, only values ≥0.25
Direction: higher = stronger binding
Sequence	E-score
CCGGTGAG	0.27
GTAATACA	0.262
TACTGTAA	0.291
ACTATAGT	0.264

Study 3
Target: Replicase polyprotein 1ab, nsp13 helicase (rep, Severe acute respiratory syndrome coronavirus 2, UniProt P0DTD1)
Mode: inhibitor
Concentration: 20 µM
SMILES	inhibition [%]
CN[C@H](C(=O)N[C@H](C(=O)N(C)[C@H](/C=C(\C)C(=O)O)C(C)C)C(C)(C)C)C(C)(C)c1ccccc1	6.77
C[N+](C)(C)CCCCCNCC12CC3CC(CC(C3)C1)C2	0.23
CCCCCCCCCCCCCCCCCC(=O)OC[C@@H](O)[C@H]1OC[C@H](O)[C@H]1O	3.82
CC[C@@H](c1cccc(O)c1)[C@@H](C)CN(C)C	5.47
O=C(Oc1ccccc1)c1ccccc1O	-1.64
CC(C)(C)[N+]([O-])=Cc1ccc(S(=O)(=O)O)cc1S(=O)(=O)O	8.96
c1ccc(C(NCc2cccnc2)(c2ccccc2)c2ccccc2)cc1	-2.29
Cc1nc2ccc(NC(=O)Nc3ccnc4cccnc34)cc2o1	1.43
Cc1cc(-c2cc(O)ccc2Cl)cc2nnc(Nc3ccc(OCCN4CCCC4)cc3)nc12	7.19
COc1ccc2c3c([nH]c2c1)[C@H](CC(C)C)N1C(=O)[C@H](CCC(=O)OC(C)(C)C)NC(=O)[C@@H]1C3	10.7
COc1ccc2c(c1)c(CC(=O)OCC(C(=O)O)c1ccccc1)c(C)n2C(=O)c1ccc(Cl)cc1 (stereo not shown)	4.78
CC(C)(C)C#Cc1cc(N(C(=O)[C@H]2CC[C@H](C)CC2)[C@H]2CC[C@H](O)CC2)c(C(=O)O)s1	4.07
N[C@H](C(=O)O)[C@@H]1CC(Cl)=NO1	3.94
CC(=O)C1=C(O)C=C2Oc3c(C(C)=O)c(O)c(C)c(O)c3C2(C)C1=O (single isomer, unassigned; (+))	3.9
C[C@H]1O[C@@H](n2cc(F)c(=O)[nH]c2=O)[C@H](O)[C@@H]1O	3.12
CCN(CC)CCNC(C(=O)OCCC(C)C)c1ccccc1 (stereo not shown)	5.21
CCCN1CCN(c2ccc(C(=O)NC3(C(=O)NCC#N)CCCCC3)cc2)CC1	0.42
COc1cc(OC)c(C(=O)CCCN2CCCC2)c(OC)c1	-3.49
NC1(Cc2ccc(Cl)cc2)CCN(c2ncnc3[nH]ccc23)CC1	1.15
NC(=NCCC[C@H](N)C(=O)O)N[N+](=O)[O-]	11
COc1cccc(OC)c1-c1ccc(C[C@H](NC(=O)c2c(Cl)cccc2Cl)C(=O)O)cc1	0.5
Cc1cc(C)cc(OCC2CNC(=O)O2)c1 (stereo not shown)	10.5
Oc1c(I)cc(I)c2cccnc12	-2.82
COc1cccc(-n2nc(C(=O)O)cc2-c2ccc(C3CCCCC3)c(Cl)c2)c1	17.1
CC(N)Cc1ccc(O)cc1 (stereo not shown)	-0.63

Study 4
Target: Interferon regulatory factor 7, full length, phosphomimetic (IRF7, Homo sapiens, UniProt Q92985, residues 1-503, S101K/S471D/S472D/S475D/S476D/S477D/S483D/S484D/S487D)
Sequence of UniProt Q92985 (whole entry, unmodified, looked up): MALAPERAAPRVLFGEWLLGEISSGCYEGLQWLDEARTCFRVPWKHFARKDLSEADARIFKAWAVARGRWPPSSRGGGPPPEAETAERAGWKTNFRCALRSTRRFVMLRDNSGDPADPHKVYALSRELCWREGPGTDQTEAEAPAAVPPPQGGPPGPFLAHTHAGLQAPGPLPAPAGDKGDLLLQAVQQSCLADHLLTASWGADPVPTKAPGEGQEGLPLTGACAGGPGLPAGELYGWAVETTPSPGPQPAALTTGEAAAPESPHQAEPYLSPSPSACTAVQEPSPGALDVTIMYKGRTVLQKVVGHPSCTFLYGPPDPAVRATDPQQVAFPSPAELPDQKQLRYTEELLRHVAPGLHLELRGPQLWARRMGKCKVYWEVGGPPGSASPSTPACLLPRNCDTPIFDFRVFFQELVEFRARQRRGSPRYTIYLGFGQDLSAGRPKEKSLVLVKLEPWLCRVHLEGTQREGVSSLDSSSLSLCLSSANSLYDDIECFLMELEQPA
Method: protein-binding microarray
Molecule type: double-stranded DNA, one strand shown
Medium: in vitro
Concentration: 250 nM
Setting: 60-bp whole probe
Added: salmon DNA 0.4 mg/ml
Reference: random background probes
Direction: higher = stronger binding
Shared flanks, not repeated: GCCTAGCAC … GTCTTGATTCGCTTGACGCTGCTG
Sequence	log fluorescence
TTAGATCTTAGTATCGATTAGTGCTAG	1.03 z-score
TTAGCTTTCGGACTGGGTTAGTGCTAG	0.225 z-score
TTAGAACTGAGTTGCGATTAGTGCTAG	0.0633 z-score
GACGGCCTGGGTTTCGGGACGTGCTAG	1.43 z-score
TCATCTTATCCTATCAGACTGTGCTAG	0.967 z-score
TCAAACCTGGGTCTCTGACTGTGCTAG	-0.354 z-score
TTAGATTTAAGACTGGATTAGTGCTAG	0.0318 z-score
TTAGAACTGGGGATTCGATTAGTGCTA	0.629 z-score

Study 5
Target: Fragile X messenger ribonucleoprotein 1, C-terminal low-complexity region (Fmr1, Mus musculus, UniProt P35922)
Method: RNA Bind-n-Seq
Molecule type: RNA
Medium: in vitro
Concentration: 200 nM
Setting: whole 134-nt RNA, ends assumed
Added: 150 mM KCl
Reference: input library
Direction: higher = stronger binding
Shared flanks, not repeated: GGGAGUUCUACAGUCCGACGAUC … UGGAAUUCUCGGGUGUCAAGG
Sequence	log2 enrichment
CUUCUUGCAUGCUCGGCUCCGGACAGCUACGCUUCGGCAUGACGCAGACGGGCAGGCCACCCUGUUGAACCUCCUGCUGCGGAAUUACCU	-0.394
UUUGCUGAUUUCUGGCUGGCGGAUCAGCUGAACAGCCUGUCAGUGAUACUGAUGGACCUGGAAUAUAUGAUCUGCUUCUACAGUUUGGAG	-2.56
AGUCCUGUGCUACACAUCGUAUGUACCGAAUCGGAAAAAGGAAAAAGGAAAAAAAGGAAAGUAUUAUGUUACGCCGUUCGGAUCUGCACU	-0.914
AAGUCCUGUGCUACACAUCGUAUGUACCGAAUCGGGGUUUUUGGGGAGGGGAGGGGAAAGUAUUAUGUUACGCCGUUCGGAUCUGCACUU	0.944
ACCAUGCAGGUGGGCAUCUUUGGGAAGUGGGGCAAGGGGGGGAUAGGGAGGGGGGUAACACUUUGGGCACAGGUGGUCCCAGGUCGUUUC	0.481
CCUCAAGUCCUGUGCUACACAUCGUAUGUACCGAAUCGGGGCCGGCCGGCCGGAAAGUAUUAUGUUACGCCGUUCGGAUCUGCACUUCCA	-0.181
GUCCUGUGCUACACAUCGUAUGUACCGAAUCGGGGAAAAAGGGAAAAAGGGAAAAAGGAAAGUAUUAUGUUACGCCGUUCGGAUCUGCAC	-0.307
UAACUUUAGAGGAGGAGCUGAUGGAUAUGGCAGUGGACGUGGAUUUGGGGAUGGCUAUAAUGGGUAUGGAGGAGGACCUGGAGGUGGCAA	0.452

Study 6
Target: Replicase polyprotein 1ab, main protease (rep, Severe acute respiratory syndrome coronavirus 2, UniProt P0DTD1)
Effect on: enzyme activity
Mode: inhibitor
Concentration: 20 µM
Setting: hit confirmation
Compound	inhibition [%]
CCOc1cc(C(Nc2cc(C)ccn2)c2ccc3cccnc3c2O)ccc1OC (stereo not shown)	107
CCCCC(CC)C/N=C(\N)N/C(N)=N/CCCCCC/N=C(\N)N/C(N)=N/CC(CC)CCCC (stereo not shown)	-7.6
COC(=O)C(N)CS (stereo not shown)	9.4

A few entries again (study 3):
SMILES	inhibition [%]
Cc1cc(-c2cc(O)ccc2Cl)cc2nnc(Nc3ccc(OCCN4CCCC4)cc3)nc12	7.19
COc1ccc2c3c([nH]c2c1)[C@H](CC(C)C)N1C(=O)[C@H](CCC(=O)OC(C)(C)C)NC(=O)[C@@H]1C3	10.7
COc1ccc2c(c1)c(CC(=O)OCC(C(=O)O)c1ccccc1)c(C)n2C(=O)c1ccc(Cl)cc1 (stereo not shown)	4.78
CC(C)(C)C#Cc1cc(N(C(=O)[C@H]2CC[C@H](C)CC2)[C@H]2CC[C@H](O)CC2)c(C(=O)O)s1	4.07
N[C@H](C(=O)O)[C@@H]1CC(Cl)=NO1	3.94
CC(=O)C1=C(O)C=C2Oc3c(C(C)=O)c(O)c(C)c(O)c3C2(C)C1=O (single isomer, unassigned; (+))	3.9
C[C@H]1O[C@@H](n2cc(F)c(=O)[nH]c2=O)[C@H](O)[C@@H]1O	3.12
